# Values quoted from earlier work that unrelated publications cite.
# ± gives the spread as reported.
SMILES,cell line,assay,setting,IC50 [µM]
O=C(Nc1nccs1)c1cnn(-c2ccccc2)c1-n1cccc1,human monocytes,phagocytosis of anti-D RBCs,,> 5
CN(C)c1ccc(C(=O)N(CC(=O)NCc2ccccc2)Cc2ccc(C(=O)Nc3ccccc3N)cc2)cc1,Cal27CisR,"cellular HDAC activity, inhibitor",added: Boc-Lys(ε-Ac)-AMC substrate,0.491 ± 0.052
Nc1cccc2c1C(=O)N(C1CCC(=O)NC1=O)C2=O (centres unmarked),PBMCs,measured: TNF-alpha release,added: LPS,0.013
CO[C@@H]1CCN(c2nccc(Nc3cc4c(C(C)C)ccc(N5C[C@H](CS(C)(=O)=O)[C@H]5C)c4cn3)n2)C[C@@H]1F,Ba/F3 EGFR Del19/T790M/C797S,cell growth,,0.004
Cc1cc(-c2nccc3c2ccn3CC(=O)Nc2ccc(-c3cnccn3)cn2)ccn1,murine L cells expressing WNT3A,"WNT release, inhibitor",,0.00064
COC(=O)CC1CCN(C(=O)c2cc(-c3cccs3)nn2-c2ccccc2)CC1,human monocytes,phagocytosis of anti-D RBCs,,4.2
COc1cc2c(Oc3ccc(CC(=O)N/N=C(/C)c4ccccc4)cc3F)ccnc2cc1OCCCN1CCCC1,A549,cell growth,72 h,0.28
N#CCNC(=O)c1ccc(-c2ccnc(Nc3ccc(N4CCOCC4)cc3)n2)cc1,MDA-MB-468,cell growth,72 h,3.4
Cc1c(C#N)cccc1[C@@H](C)Nc1nnc(C)c2cnc(N3CCOCC3)cc12,RERF-LC-Ad1,"cell viability, 3D CellTiter-Glo",14 days,> 1
CNC(=O)c1cc(Oc2ccc(NC(=O)Nc3ccc(Cl)c(C(F)(F)F)c3)cc2)ccn1,U-87 MG,,,35.9
CC(=O)O[C@H](C)C(=O)CCCCC[C@@H]1NC(=O)[C@H]2CCCN2C(=O)[C@H](Cc2ccccc2)NC(=O)C(C)(C)NC1=O,K562,,,0.061
Nc1cccc2c1CN(C1CCC(=O)NC1=O)C2=O (centres unmarked),PBMCs,measured: TNF-alpha secretion,,0.013
Cc1ccc(C)c(COc2cc(NC(=O)c3ccccc3)ccc2N(C)S(C)(=O)=O)c1,SK-BR-3,"cell growth, MTT",48 h,3.65 ± 0.19
N=C(N)c1ccc(Nc2ccc(-c3cc4ccc(C(=N)N)cc4[nH]3)cc2)cc1,CMK,cell proliferation,,1.31
Cc1nc(NC(=O)N2CCC[C@H]2C(N)=O)sc1-c1ccnc(C(C)(C)C(F)(F)F)c1,U-87 MG,,,62.6
COc1cc2c(Oc3ccc(NC(=O)c4nn(-c5ccccc5)c(=O)cc4C)cc3F)ccnc2cc1OCCCN1CCCCC1,A549,cell growth,72 h,0.15
O=C(O)c1[nH]c2ccccc2c1C1NCCc2ccccc21 (centres unmarked),COLO 205,cytotoxicity,,> 100
COc1cc(C2Oc3cc([C@H]4Oc5cc(O)cc(O)c5C(=O)[C@@H]4O)ccc3OC2CO)ccc1O (some centres unmarked),MDA-MB-231,cell proliferation,,192
Cn1ncc(Cl)c1-c1cc(C(=O)N[C@H](CN)Cc2ccc(F)c(F)c2)oc1Cl,U-87 MG,,,90.4
CCCCN(CCCC)CC(O)c1cc(Cl)cc2c1-c1ccc(Cl)cc1/C2=C/c1ccc(Cl)cc1 (centres unmarked),HepG2,cell viability,,> 250
CN(c1ccc(NC(=O)c2ccc(Cl)c([N+](=O)[O-])c2)cc1OCc1ccccc1)S(C)(=O)=O,SK-BR-3,"cell growth, MTT",48 h,9.22 ± 4.11
CC(C)(c1ccc(O)cc1)c1ccc(O)cc1,MDA-kb2,cell viability,24 h,> 100
CC(=O)Nc1cccc(-n2c(=O)n(C3CC3)c(=O)c3c(Nc4ccc(I)cc4F)n(C)c(=O)c(C)c32)c1,U-87 MG,,,2.72
O=c1ncccn1[C@@H]1O[C@H](CO)[C@@H](O)[C@H]1O,Hey,,,64.7
NC1(c2ccc(-c3nc4ccn5c(=O)[nH]nc5c4cc3-c3ccccc3)cc2)CCC1,U-87 MG,,,28.9
COc1cc(C(=O)n2nc(Nc3ccc(C)cc3)nc2N)cc(OC)c1OC,A549,cell growth,72 h,0.00051

# Repeated from above:
SMILES,cell line,assay,setting,IC50 [µM]
COC(=O)CC1CCN(C(=O)c2cc(-c3cccs3)nn2-c2ccccc2)CC1,human monocytes,phagocytosis of anti-D RBCs,,4.2
CO[C@@H]1CCN(c2nccc(Nc3cc4c(C(C)C)ccc(N5C[C@H](CS(C)(=O)=O)[C@H]5C)c4cn3)n2)C[C@@H]1F,Ba/F3 EGFR Del19/T790M/C797S,cell growth,,0.004
COc1cc2c(Oc3ccc(CC(=O)N/N=C(/C)c4ccccc4)cc3F)ccnc2cc1OCCCN1CCCC1,A549,cell growth,72 h,0.28
